# Experimental data collected from several papers.
# A part holds a random share of what one study measured. Positions count from the first letter of the parent shown.

# Study 1
# Target: ABI1, truncated, D143A, DHFR fusion (Arabidopsis thaliana)
# Method: DHFR PCA, deep sequencing
# Sample: yeast
# Notes: methotrexate growth selection, single substitutions
# Together with: (+)-ABA 2500 µM
# Baseline: wild-type fitted maximum
# Reading: higher = stronger binding
# Starting sequence: PYL1, truncated, DHFR fusion (Arabidopsis thaliana); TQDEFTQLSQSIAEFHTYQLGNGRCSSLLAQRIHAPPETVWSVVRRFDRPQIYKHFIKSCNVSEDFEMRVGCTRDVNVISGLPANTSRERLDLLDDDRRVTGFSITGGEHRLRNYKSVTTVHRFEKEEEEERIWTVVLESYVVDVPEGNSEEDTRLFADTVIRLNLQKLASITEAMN; partner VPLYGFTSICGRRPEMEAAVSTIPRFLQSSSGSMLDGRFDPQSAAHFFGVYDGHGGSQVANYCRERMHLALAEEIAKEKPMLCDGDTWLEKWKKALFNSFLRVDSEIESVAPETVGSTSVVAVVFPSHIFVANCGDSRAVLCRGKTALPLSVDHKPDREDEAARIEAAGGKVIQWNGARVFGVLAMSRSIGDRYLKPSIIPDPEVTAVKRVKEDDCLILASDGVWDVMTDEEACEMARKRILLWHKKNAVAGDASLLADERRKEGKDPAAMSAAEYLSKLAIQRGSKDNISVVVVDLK
Variant,relative binding score
R90T,98.4%
F47S,-0.254%
V142C,98.6%
W134S,108%
R132W,95.1%
I162G,53.8%
V136Y,106%
R123T,104%
L156P,15.8%
C25G,81.9%
G81K,88.9%
D97I,108%
V43N,92.8%
W134T,108%
S171E,100%
S59H,92.5%
D159P,-3.48%
V121F,23%

# Study 2
# Target: Sal-like protein 4, full length isoform B (SALL4, Homo sapiens, UniProt Q9UJQ4-2, residues 1-616)
# Method: universal PBM
# Molecule type: double-stranded DNA, one strand shown
# Sample: in vitro
# Concentration: not given
# Notes: 8-mer, flanks averaged, mean of replicates
# Reading: higher = stronger binding
# Residues (chain): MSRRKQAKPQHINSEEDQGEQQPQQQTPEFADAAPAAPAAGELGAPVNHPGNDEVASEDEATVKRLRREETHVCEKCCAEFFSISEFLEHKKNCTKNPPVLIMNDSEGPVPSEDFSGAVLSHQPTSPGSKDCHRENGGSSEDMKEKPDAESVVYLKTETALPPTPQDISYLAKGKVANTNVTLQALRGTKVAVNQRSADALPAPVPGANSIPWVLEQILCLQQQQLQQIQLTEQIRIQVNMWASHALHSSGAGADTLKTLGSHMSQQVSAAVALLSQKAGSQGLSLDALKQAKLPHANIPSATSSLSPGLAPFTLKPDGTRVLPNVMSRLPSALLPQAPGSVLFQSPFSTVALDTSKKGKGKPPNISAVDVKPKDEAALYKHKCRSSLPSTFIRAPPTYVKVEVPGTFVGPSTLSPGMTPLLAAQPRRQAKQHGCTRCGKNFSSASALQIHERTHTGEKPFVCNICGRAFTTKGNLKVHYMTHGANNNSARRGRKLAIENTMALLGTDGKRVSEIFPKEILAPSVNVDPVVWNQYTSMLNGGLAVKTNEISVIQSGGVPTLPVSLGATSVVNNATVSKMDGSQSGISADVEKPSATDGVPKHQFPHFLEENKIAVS
Oligonucleotide,E-score
ATAAATAC,0.349
ACGGCAGT,-0.167
GCGCCGCC,-0.341
AGAATAAA,0.314
CCACCGTC,-0.311
CACTATCG,-0.0381
CTATCAAC,0.0522
ACCCCGTG,-0.259
AGCGGGCG,-0.359
ACGCATAT,0.237
CGGGGTGA,-0.163
ACTGCCGG,-0.257
GCGTAGGA,-0.152
GTCGTGGA,-0.0454
ACACATTC,0.131
ATGGGAAG,0.0163
AACTAGTT,0.242
AACTAATC,0.149
CTTCGGAA,0.0756
CTATCAAG,0.0109
AGATTATA,0.244
ACCGTTCA,-0.0694
ACATAAAG,0.276
CTCCAGAC,0.0304
AGCGAAAC,-0.043

# Study 3
# Target: FOS, bZIP domain (human)
# Method: DHFR protein complementation
# Sample: yeast
# Notes: single substitutions, most at no-binding floor
# Baseline: wild-type JUN-FOS pair
# Reading: higher = stronger binding
# Starting sequence: JUN, bZIP domain (human); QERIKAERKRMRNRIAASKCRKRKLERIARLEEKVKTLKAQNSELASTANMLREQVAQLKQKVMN; partner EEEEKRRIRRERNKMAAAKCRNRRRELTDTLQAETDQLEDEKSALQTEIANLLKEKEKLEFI
Variant,binding fitness [natural log]
K34C,-0.233
K34R,0.14
I28D,-0.24
S43W,-0.193
R30N,-0.0474
I28S,-0.319
E44K,-0.0388
A40Q,0.0762
Q41I,-0.0206
T48I,-0.0925
E32S,-0.0161
E44P,-1.17
L38F,-1.23
L45H,-1.35
I28Q,-0.0523
L59P,-1.16
T37N,0.0476
A49K,-0.271
K39H,-0.365
R53F,-0.897
R30M,0.0636
R30G,0.0371
K36Y,-0.173
L45M,-0.393
A46W,-0.304

# Study 4
# Target: CCNB1, cyclin fold, Cln2 fusion (human)
# Method: yeast growth competition, sequencing
# Sample: yeast
# Notes: weak parent motif
# Baseline: not given
# Reading: higher = stronger binding
# Starting sequence: DOT1L docking peptide (human); SEAKRRIVFTITT
Variant,normalised enrichment score
K4A,0.0216
E2A,0.536
T12A,0.334
V8A,0.0159
I11A,-0.0611
T10A,0.143

# Study 5
# Target: Ras GTPase-activating protein-binding protein 1, RRM domain (G3BP1, Homo sapiens, UniProt Q13283)
# Sequence of UniProt Q13283 (whole entry, looked up): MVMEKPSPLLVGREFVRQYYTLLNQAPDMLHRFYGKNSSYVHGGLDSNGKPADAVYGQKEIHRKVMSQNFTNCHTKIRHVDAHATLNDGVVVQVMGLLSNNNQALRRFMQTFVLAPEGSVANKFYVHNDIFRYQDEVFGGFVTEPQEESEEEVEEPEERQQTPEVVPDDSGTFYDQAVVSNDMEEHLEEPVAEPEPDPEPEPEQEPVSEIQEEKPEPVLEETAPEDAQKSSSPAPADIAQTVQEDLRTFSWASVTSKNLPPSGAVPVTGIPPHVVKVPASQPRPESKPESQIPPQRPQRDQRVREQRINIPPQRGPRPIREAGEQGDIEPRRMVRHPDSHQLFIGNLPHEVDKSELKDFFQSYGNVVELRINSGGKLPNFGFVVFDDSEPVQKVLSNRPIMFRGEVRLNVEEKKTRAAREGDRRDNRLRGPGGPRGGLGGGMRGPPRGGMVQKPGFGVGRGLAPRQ
# Method: RNA Bind-n-Seq
# Molecule type: RNA
# Sample: in vitro
# Concentration: 1 µM
# Notes: whole 134-nt RNA, ends assumed
# Together with: 150 mM KCl
# Baseline: input library
# Reading: higher = stronger binding
Oligonucleotide,log2 enrichment
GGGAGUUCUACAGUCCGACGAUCAGUCCUGUGCUACACAUCGUAUGUACCGAAUCGGGUGGGUUUUUGGGAAAAAAAGGGAAAGUAUUAUGUUACGCCGUUCGGAUCUGCACUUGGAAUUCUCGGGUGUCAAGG,0.571
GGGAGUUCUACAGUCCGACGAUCUGGAAUAAGCCUGGUGCUUUCUGGCUAUGUUUGUCAUAGGCUGACCUGGAUAUCACCGAAAUAAACAAACUAACAGCAGAAGCUAUUCAGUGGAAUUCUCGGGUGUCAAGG,-0.117
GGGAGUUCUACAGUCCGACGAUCCAAGUCCUGUGCUACACAUCGUAUGUACCGAAUCGGGCCCCGGCCCCGGGCCCCGGAAAGUAUUAUGUUACGCCGUUCGGAUCUGCACUUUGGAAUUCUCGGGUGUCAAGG,-0.923
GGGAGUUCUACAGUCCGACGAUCUGGCCCUGGUGGCAUGCGGGGAGGAAGAGGUGGCCUCAUGGAUCGUGGUGGUCCCGGUGGAAUGUUCAGAGGUGGCCAUGGUGGAGACAGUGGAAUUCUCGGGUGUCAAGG,1.15
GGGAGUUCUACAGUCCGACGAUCCCUGUGCUACACAUCGUAUGUACCGAAUCGGCCCCCCCGGCCCCCCCGGGCCCCCCCGGGGAAAGUAUUAUGUUACGCCGUUCGGAUCUGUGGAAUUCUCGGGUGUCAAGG,-0.758
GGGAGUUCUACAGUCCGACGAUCCUCAAGUCCUGUGCUACACAUCGUAUGUACCGAAUCGGUUGGGGUUGGUUGGGAAAGUAUUAUGUUACGCCGUUCGGAUCUGCACUUCCAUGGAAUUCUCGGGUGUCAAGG,-0.174
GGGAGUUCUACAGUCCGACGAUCCAAGUCCUGUGCUACACAUCGUAUGUACCGAAUCGGCCCGGGCCCGGGGCCCGGGAAAGUAUUAUGUUACGCCGUUCGGAUCUGCACUUCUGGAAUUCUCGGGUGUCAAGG,-0.692
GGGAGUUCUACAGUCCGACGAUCCCUGUGCUACACAUCGUAUGUACCGAAUCGGGGAAAAAGGGGUUUGGGGUUUUUUUGGGGAAAGUAUUAUGUUACGCCGUUCGGAUCUGCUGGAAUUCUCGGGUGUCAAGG,0.827
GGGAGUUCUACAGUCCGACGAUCGUCCUGUGCUACACAUCGUAUGUACCGAAUCGGGUUUUUGGGUUUGGGAAAAAAAGGGAAAGUAUUAUGUUACGCCGUUCGGAUCUGCACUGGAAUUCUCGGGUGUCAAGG,-0.146

# Study 6
# Molecule: PhoQ, residues 284 288 289 292 302 303 SSCLAV
# Method: Sort-seq
# Refers to: YFP reporter
# Sample: E. coli
# Notes: PhoQ-PhoP variant library
# Together with: 10 µM Mg2+
# Baseline: high Mg2+ state
# Reading: higher = stronger signaling
target,fold induction
"PhoP, residues 12 14 15 18 19 TQCLL (Escherichia coli, UniProt P23836)",12
"PhoP, residues 12 14 15 18 19 VHTVL (Escherichia coli, UniProt P23836)",5.88
"PhoP, residues 12 14 15 18 19 ICWRQ (Escherichia coli, UniProt P23836)",8.16

# For quick reference, copied from above (study 4):
Variant,normalised enrichment score
K4A,0.0216
E2A,0.536
T12A,0.334
V8A,0.0159
I11A,-0.0611
T10A,0.143
